Measurements of several laboratories.
Parts stem from different laboratories: compare values within a part only. Substitutions count along the parent as printed.
Chain of UniProt P23975 (whole entry, looked up): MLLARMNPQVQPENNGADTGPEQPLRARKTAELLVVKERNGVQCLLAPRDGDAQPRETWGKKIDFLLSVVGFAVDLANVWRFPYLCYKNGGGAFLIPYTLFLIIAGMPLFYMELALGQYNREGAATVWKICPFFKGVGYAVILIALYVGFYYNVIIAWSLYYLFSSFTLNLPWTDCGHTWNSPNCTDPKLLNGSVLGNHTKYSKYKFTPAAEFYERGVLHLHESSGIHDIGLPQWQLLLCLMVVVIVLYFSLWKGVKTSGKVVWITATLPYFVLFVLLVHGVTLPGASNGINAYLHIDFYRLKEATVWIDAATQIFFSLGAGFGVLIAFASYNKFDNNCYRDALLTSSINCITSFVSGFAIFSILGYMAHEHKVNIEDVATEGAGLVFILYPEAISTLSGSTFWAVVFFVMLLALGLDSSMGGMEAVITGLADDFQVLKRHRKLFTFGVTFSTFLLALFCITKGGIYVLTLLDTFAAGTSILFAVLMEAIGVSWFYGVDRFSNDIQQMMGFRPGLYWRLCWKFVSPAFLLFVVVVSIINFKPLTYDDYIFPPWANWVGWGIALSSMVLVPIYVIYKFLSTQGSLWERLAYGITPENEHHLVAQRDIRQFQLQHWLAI
Chain of UniProt P15170 (whole entry, looked up): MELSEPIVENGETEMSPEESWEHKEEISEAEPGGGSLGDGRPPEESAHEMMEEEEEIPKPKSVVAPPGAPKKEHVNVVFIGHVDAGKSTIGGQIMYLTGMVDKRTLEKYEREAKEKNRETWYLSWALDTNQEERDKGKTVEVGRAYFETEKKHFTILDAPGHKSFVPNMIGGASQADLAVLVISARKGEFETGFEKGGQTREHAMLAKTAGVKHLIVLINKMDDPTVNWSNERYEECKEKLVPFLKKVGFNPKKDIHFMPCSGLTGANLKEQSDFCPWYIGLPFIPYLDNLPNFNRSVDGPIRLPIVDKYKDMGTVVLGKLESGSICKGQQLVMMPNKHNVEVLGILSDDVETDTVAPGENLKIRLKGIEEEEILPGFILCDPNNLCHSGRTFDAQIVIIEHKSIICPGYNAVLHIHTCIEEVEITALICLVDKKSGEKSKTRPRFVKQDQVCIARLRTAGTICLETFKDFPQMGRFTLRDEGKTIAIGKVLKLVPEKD
Chain of UniProt P61075 (whole entry, looked up): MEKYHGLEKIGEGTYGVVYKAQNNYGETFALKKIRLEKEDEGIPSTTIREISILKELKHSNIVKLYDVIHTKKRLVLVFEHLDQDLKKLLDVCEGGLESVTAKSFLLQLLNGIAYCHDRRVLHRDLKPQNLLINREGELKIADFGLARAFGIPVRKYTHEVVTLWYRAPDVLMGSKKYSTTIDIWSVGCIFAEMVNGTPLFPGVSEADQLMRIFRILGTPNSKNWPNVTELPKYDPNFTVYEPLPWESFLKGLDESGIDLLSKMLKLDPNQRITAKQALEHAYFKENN

Study 1 — target: CCND3, cyclin fold, Cln2 fusion (human); method: yeast growth competition, sequencing; matrix: yeast; notes: weak parent motif; reference: not given; direction: higher = stronger binding; parent: viral docking peptide; PTARRRLLHDLDT
Substitution	normalised enrichment score
L7A	0.0726
R5K	0.135
L8A	0.0881
D12A	0.0554
P1A	0.13
R5K H9F	-0.064
R5K L8F	-0.123
R5A R6A L7A L8A	0.173

Study 2 — observed: binding; method: phage display NGS; molecule type: peptide; notes: panning round 2; reference: input library
Target: UDP-N-acetylglucosamine--peptide N-acetylglucosaminyltransferase 110 kDa subunit (OGT, Homo sapiens, UniProt O15294)
Residues (O15294 1-1046): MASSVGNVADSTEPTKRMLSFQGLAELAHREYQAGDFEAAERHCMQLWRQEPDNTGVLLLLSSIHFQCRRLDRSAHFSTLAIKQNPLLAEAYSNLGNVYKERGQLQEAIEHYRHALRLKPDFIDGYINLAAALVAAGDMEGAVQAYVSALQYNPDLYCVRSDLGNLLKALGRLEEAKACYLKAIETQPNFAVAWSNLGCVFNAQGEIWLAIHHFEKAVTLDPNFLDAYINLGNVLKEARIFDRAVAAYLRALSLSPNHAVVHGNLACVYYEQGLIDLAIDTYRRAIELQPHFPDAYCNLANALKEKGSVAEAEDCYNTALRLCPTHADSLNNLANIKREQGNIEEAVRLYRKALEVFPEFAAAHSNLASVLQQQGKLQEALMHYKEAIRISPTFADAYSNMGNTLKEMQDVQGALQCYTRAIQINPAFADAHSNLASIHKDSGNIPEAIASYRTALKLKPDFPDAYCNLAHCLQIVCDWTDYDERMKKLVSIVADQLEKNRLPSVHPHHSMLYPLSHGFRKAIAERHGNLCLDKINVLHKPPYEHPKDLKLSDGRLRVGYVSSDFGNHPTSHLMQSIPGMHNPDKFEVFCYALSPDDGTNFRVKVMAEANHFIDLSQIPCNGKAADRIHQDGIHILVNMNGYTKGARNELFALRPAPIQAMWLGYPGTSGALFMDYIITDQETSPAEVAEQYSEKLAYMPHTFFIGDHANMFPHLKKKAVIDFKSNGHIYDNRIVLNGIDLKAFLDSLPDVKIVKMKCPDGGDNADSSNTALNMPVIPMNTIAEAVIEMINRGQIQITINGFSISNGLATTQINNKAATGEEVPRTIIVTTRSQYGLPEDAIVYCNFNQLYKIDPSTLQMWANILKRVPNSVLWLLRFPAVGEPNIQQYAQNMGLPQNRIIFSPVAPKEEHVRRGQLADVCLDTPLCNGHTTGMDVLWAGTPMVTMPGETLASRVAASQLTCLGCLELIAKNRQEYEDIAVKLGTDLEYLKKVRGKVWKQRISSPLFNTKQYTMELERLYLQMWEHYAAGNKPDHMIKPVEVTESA
Sequence	minimum log2 enrichment ratio
YFGRVTFPPKYQIVF	4.85
HPSHRWHYNETHTD	2.84
NIWMPVYQIRYSYNT	4.13
WPHAQHITHQDDWHR	2.27
RHLSHVHNVHSSNSV	2.02
HTSIAHHLHIGTIQT	2.63
RDIMPDYHPIYQIRI	4.54
ANTLDYTPFYTIEY	2.13

Other studies, line by line
SMILES	target	assay	system	conditions	endpoint	value
CC(=O)C1=C(C)N(c2cccc(C(F)(F)F)c2)C(=O)N[C@H]1c1ccc(C#N)nc1	SLC6A2 (Homo sapiens, UniProt P23975)	cell-free assay		10 µM	inhibition	-8.06%
O=C1CCC(N2Cc3c(ccc4c3OCC43CCN(Cc4ccccc4)CC3)C2=O)C(=O)N1 (stereo not shown)	GSPT1 (Homo sapiens, UniProt P15170)	degrader, HiBiT	HEK293	10 µM, 6 h	remaining protein	120%
CC(=O)Nc1c(C(C)=O)c(=O)n(C)c2nc(-c3ccc(Cl)cc3Cl)c(-c3ccc(Cl)cc3)cc12	CRK2 (Plasmodium falciparum, UniProt P61075)	cell-free assay, competition with immobilised ligand		1 µM	remaining binding	100%

Excerpt of the above (study 1):
Substitution	normalised enrichment score
L8A	0.0881
R5K	0.135
